Measurements gathered from unrelated publications.
Compare with care: the assays were run in different laboratories. Values joined by “and” are separate records of one study, mostly repeats; a detail may differ.
RPS6KA3: Ribosomal protein S6 kinase alpha-3 (RPS6KA3, Homo sapiens, UniProt P51812)
Sequence of UniProt P51812 (whole entry, looked up): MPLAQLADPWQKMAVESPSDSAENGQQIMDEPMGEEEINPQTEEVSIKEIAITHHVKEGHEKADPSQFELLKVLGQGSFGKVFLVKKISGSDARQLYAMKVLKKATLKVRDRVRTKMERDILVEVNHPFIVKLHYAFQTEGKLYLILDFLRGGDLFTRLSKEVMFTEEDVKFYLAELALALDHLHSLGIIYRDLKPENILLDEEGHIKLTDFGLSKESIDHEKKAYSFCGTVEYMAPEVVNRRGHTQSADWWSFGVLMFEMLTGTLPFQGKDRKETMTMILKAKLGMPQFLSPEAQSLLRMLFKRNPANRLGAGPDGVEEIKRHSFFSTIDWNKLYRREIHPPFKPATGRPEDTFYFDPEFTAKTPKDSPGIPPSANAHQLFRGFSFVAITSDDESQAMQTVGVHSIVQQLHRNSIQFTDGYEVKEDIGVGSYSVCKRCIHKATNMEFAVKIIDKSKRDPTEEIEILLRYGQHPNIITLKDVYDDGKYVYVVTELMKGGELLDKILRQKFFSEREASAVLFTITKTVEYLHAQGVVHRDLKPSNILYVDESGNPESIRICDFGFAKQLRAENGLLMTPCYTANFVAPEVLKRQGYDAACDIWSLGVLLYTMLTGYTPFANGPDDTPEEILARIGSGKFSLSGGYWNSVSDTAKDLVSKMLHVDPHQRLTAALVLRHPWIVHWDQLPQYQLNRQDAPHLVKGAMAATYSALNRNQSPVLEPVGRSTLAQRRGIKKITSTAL

SMILES | target | assay | test system | setting | scale | quantity | result
Cc1cccc(-c2ccc3nc(NC(=O)C4CCOCC4)nn3c2)c1 | RPS6KA3 | enzyme activity, Dundee kinase panel | – | 10 µM | – | remaining activity | 56%
CN1CC[C@@H](COc2cnc(C#N)cc2-c2ccn3nc(NC(=O)C4CC4)cc3c2)C1 | RPS6KA3 | inhibitor, KinaseProfiler panel | – | 1 µM | – | inhibition | 18%
CS(=O)(=O)Nc1cccc(-c2csc3cnc(Nc4ccc(N5CCN(CCCCCOc6cccc7c6C(=O)N(C6CCC(=O)NC6=O)C7=O)CC5)cc4)nc23)c1 (stereo not drawn) | Ribosomal protein S6 kinase alpha-3, C-terminal kinase domain (RPS6KA3, Homo sapiens, UniProt P51812) | probe labelling, inhibitor, KiNativ chemoproteomics | MOLT-4 | 1 µM | – | inhibition | -15.7%
Cc1cccc(O[C@H]2CCC[C@@H](C(C)CNCc3ccncc3)C2)c1 (relative stereo) | RPS6KA3 | enzyme activity, inhibitor | – | 10 µM | – | inhibition | -4%
Cc1cccc(-c2ccc3nc(NC(=O)C4CCCCC4)nn3c2)c1 | RPS6KA3 | enzyme activity, Dundee kinase panel | – | 10 µM | – | remaining activity | 76%
Nc1ncc(-c2cc(-c3cnn(CC(F)(F)F)c3)ncc2F)nc1C(=O)NC1CNCC(F)C1 (stereo not drawn) | RPS6KA3 | enzyme activity | – | 1 µM | baseline: DMSO control | remaining activity | 76.6%
Cc1nc2c(F)cc(-c3nc(Nc4ccc(CNC(=O)CCCCCCC(=O)NO)cc4)ncc3F)cc2n1C(C)C | RPS6KA3 | enzyme activity, inhibitor | – | 1 µM | – | inhibition | 58%
COCC12C(=O)NC3C4(C(OC)CC1O)C1CC5(O)C(OC)C(O)C(OC(C)=O)(C1C5OC(=O)c1ccccc1)C3(O)C(OC)C24 (stereo not drawn) | RPS6KA3 | kinase activity, inhibitor, ProQinase kinase profiling | – | 25 µM | baseline: control | remaining activity | 110% and 97%
CCn1cc(C(=O)O)c(=O)c2c(N)c(F)c(NC3CCCCC3)cc21 | RPS6KA3 | kinase activity | – | 0.1 µM, with: ATP at Km | – | inhibition | 8.5%
C#CCOC(=O)[C@]1(C)C=C(C(=O)OC(C)(C)C)C(=O)CC1 | RPS6KA3 | RSK sensor | – | concentration not given | baseline: positive control | normalized activity | 126
C=CC(=O)Nc1cc(-c2nn(C3CCN(CCNC(=O)[C@H](C)CCC45CC6CC(CC(C6)C4)C5)CC3)c3ncnc(N)c23)ccc1Oc1ccccc1 | Ribosomal protein S6 kinase alpha-3, N-terminal kinase domain (RPS6KA3, Homo sapiens, UniProt P51812) | inhibitor, KiNativ profiling | biochemical | 2 µM | – | inhibition | 15.9%
O=C(Nc1ccc(Oc2ncnc3[nH]cc(-c4ccccc4)c23)c(F)c1)c1c2n(n(-c3cc(F)ccc3F)c1=O)CCCC2 | RPS6KA3 | enzyme activity, inhibitor | – | 0.5 µM | – | inhibition | 10%
C=CC(=O)Nc1cccc(-c2cnc3[nH]cc(C(=O)NC(C)(C)C)c3n2)c1 | RPS6KA3 | enzyme activity, inhibitor | – | 0.1 µM | – | inhibition | 23%
NC(=O)C[C@H]1CCc2sc3ncnc(O[C@H]4CC[C@H](N5CCOCC5)CC4)c3c21 | RPS6KA3 | enzyme activity, inhibitor | – | 10 µM | – | inhibition | 20%
Nc1nc(Nc2ccccc2)sc1C(=O)c1ccccc1 | RPS6KA3 | enzyme activity, inhibitor | – | 10 µM | – | remaining activity | 47%

Repeated from above:
SMILES | target | assay | test system | setting | scale | quantity | result
COCC12C(=O)NC3C4(C(OC)CC1O)C1CC5(O)C(OC)C(O)C(OC(C)=O)(C1C5OC(=O)c1ccccc1)C3(O)C(OC)C24 (stereo not drawn) | RPS6KA3 | kinase activity, inhibitor, ProQinase kinase profiling | – | 25 µM | baseline: control | remaining activity | 110% and 97%
